Assay results pooled from the literature.
Compare with care: the assays were run in different laboratories. ± gives the spread as reported.
B1: Runx2 (Mus musculus, UniProt Q08775); sequence looked up; chain MLHSPHKQPQNHKCGANFLQEDCKKALAFKWLISAGHYQPPRPTESVSALTTVHAGIFKAASSIYNRGHKFYLEKKGGTMASNSLFSAVTPCQQSFFWDPSTSRRFSPPSSSLQPGKMSDVSPVVAAQQQQQQQQQQQQQQQQQQQQQQQQQQQQQEAAAAAAAAAAAAAAAAAAVPRLRPPHDNRTMVEIIADHPAELVRTDSPNFLCSVLPSHWRCNKTLPVAFKVVALGEVPDGTVVTVMAGNDENYSAELRNASAVMKNQVARFNDLRFVGRSGRGKSFTLTITVFTNPPQVATYHRAIKVTVDGPREPRRHRQKLDDSKPSLFSDRLSDLGRIPHPSMRVGVPPQNPRPSLNSAPSPFNPQGQSQITDPRQAQSSPPWSYDQSYPSYLSQMTSPSIHSTTPLSSTRGTGLPAITDVPRRISDDDTATSDFCLWPSSLSKKSQAGASELGPFSDPRQFPSISSLTESRFSNPRMHYPATFTYTPPVTSGMSLGMSATTHYHTYLPPPYPGSSQSQSGPFQTSSTPYLYYGTSSASYQFPMVPGGDRSPSRMVPPCTTTSNGSTLLNPNLPNQNDGVDADGSHSSSPTVLNSSGRMDESVWRPY
B2: lpxC 1-305 (Escherichia coli, UniProt P0A725); chain MIKQRTLKRIVQATGVGLHTGKKVTLTLRPAPANTGVIYRRTDLNPPVDFPADAKSVRDTMLCTCLVNEHDVRISTVEHLNAALAGLGIDNIVIEVNAPEIPIMDGSAAPFVYLLLDAGIDELNCAKKFVRIKETVRVEDGDKWAEFKPYNGFSLDFTIDFNHPAIDSSNQRYAMNFSADAFMRQISRARTFGFMRDIEYLQSRGLCLGGSFDCAIVVDDYRVLNEDGLRFEDEFVRHKMLDAIGDLFMCGHNIIGAFTAYKSGHALNNKLLQAVLAKQEAWEYVTFQDDAELPLAFKAPSAVLA
B3: RSPO4/IgG1 Fc RSPO4 32-137 Q65R/N297Q; CPT2 conjugated via azide click; chain GGNCTGCIICSEENGCSTCQQRLFLFIRREGIRRYGKCLHDCPPGYFGIRGQEVNRCKKCGATCESCFSQDFCIRCKRQFYLYKGKCLPTCPPGTLAHQNTRECQGGGGGSGGGGSGGGGS
B4: CRYAA G98R/R157Q (Homo sapiens, UniProt P02489); sequence looked up; chain MDVTIQHPWFKRTLGPFYPSRLFDQFFGEGLFEYDLLPFLSSTISPYYRQSLFRTVLDSGISEVRSDRDKFVIFLDVKHFSPEDLTVKVQDDFVEIHRKHNERQDDHGYISREFHRRYRLPSNVDQSALSCSLSADGMLTFCGPKIQTGLDATHAEQAIPVSREEKPTSAPSS
B5: TIMP2 27-153 (Homo sapiens, UniProt P16035); sequence looked up; chain CSCSPVHPQQAFCNADVVIRAKAVSEKEVDSGNDIYGNPIKRIQYEIKQIKMFKGPEKDIEFIYTAPSSAVCGVSLDVGGKKEYLIAGKAEGDGKMHITLCDFIVPWDTLSTTQKKSLNHRYQMGCE
B6: SAG del76 (Bos taurus, UniProt P08168); sequence looked up; chain MKANKPAPNHVIFKKISRDKSVTIYLGKRDYIDHVERVEPVDGVVLVDPELVKGKRVYVSLTCAFRYGQEDIDVMLSFRRDLYFSQVQVFPPVGASGATTRLQESLIKKLGANTYPFLLTFPDYLPCSVMLQPAPQDVGKSCGVDFEIKAFATHSTDVEEDKIPKKSSVRLLIRKVQHAPRDMGPQPRAEASWQFFMSDKPLRLAVSLSKEIYYHGEPIPVTVAVTNSTEKTVKKIKVLVEQVTNVVLYSSDYYIKTVAAEEAQEKVPPNSSLTKTLTLVPLLANNRERRGIALDGKIKHEDTNLASSTIIKEGIDKTVMGILVSYQIKVKLTVSGLLGELTSSEVATEVPFRLMHPQPEDPDTAKESFQDENFVFEEFARQNLKDAGEYKEEKTDQEAAMDE
B7: CDC48A 1-190 (Arabidopsis thaliana, UniProt P54609); chain MSTPAESSDSKSKKDFSTAILERKKSPNRLVVDEAINDDNSVVSLHPATMEKLQLFRGDTILIKGKKRKDTVCIALADETCEEPKIRMNKVVRSNLRVRLGDVISVHQCPDVKYGKRVHILPVDDTVEGVTGNLFDAYLKPYFLEAYRPVRKGDLFLVRGGMRSVEFKVIETDPAEYCVVAPDTEIFCEG
B8: CCL14 28-93 (UniProt Q16627-1); sequence looked up; chain GPYHPSECCFTYTTYKIPRQRIMDYYETNSQCSKPGIVFITKRGHSVCTNPSDKWVQDYIKDMKEN
B9: C1S 438-688 S632A (Homo sapiens, UniProt P09871); chain IIGGSDADIKNFPWQVFFDNPWAGGALINEYWVLTAAHVVEGNREPTMYVGSTSVQTSRLAKSKMLTPEHVFIHPGWKLLEVPEGRTNFDNDIALVRLKDPVKMGPTVSPICLPGTSSDYNLMDGDLGLISGWGRTEKRDRAVRLKAARLPVAPLRKCKEVKVEKPTADAEAYVFTPNMICAGGEKGMDSCKGDAGGAFAVQDPNDKTKFYAAGLVSWGPQCGTYGLYTRVKNYVDWIMKTMQENSTPRED
Chain of UniProt P08637 (whole entry, looked up): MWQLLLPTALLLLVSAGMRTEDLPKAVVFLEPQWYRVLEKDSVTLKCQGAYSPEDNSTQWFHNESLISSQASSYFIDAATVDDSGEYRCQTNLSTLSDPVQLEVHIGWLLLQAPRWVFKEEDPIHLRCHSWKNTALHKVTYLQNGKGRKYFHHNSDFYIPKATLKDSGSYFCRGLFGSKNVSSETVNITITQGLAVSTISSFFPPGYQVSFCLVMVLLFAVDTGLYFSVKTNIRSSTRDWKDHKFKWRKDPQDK
Chain of UniProt P09238 (whole entry, looked up): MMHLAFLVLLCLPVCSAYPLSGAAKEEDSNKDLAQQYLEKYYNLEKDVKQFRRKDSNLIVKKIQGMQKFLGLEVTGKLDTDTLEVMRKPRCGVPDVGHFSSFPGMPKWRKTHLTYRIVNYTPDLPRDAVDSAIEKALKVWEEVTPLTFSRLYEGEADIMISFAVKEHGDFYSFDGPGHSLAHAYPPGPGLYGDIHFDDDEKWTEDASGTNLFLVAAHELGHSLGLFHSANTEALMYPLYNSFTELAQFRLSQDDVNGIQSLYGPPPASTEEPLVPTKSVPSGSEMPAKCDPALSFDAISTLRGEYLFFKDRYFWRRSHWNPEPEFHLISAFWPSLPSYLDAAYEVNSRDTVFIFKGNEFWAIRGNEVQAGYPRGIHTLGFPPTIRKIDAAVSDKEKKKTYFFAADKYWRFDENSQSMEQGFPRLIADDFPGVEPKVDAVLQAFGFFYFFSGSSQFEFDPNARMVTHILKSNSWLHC
Chain of UniProt P25963 (whole entry, unmodified, looked up): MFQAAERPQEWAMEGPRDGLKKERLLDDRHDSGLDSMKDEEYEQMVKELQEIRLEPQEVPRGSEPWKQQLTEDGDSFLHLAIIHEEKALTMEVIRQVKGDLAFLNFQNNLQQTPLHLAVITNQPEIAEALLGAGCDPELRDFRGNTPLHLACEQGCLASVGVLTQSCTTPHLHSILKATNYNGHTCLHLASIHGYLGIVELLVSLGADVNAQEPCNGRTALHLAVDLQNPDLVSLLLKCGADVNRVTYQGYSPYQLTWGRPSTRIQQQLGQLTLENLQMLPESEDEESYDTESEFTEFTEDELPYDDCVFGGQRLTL
Chain of UniProt Q8VI67 (whole entry, looked up): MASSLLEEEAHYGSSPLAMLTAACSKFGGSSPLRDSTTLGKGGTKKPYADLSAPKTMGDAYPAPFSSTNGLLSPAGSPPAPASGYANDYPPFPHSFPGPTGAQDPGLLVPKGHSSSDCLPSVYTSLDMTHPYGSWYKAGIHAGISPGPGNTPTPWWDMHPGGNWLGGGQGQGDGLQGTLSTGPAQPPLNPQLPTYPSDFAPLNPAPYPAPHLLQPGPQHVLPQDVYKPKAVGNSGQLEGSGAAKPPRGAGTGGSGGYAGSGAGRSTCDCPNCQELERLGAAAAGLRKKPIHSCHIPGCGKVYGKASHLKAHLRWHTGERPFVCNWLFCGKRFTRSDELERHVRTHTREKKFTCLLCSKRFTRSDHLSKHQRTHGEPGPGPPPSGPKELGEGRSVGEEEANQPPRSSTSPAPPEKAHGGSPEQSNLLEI
Chain of UniProt P00330 (whole entry, looked up): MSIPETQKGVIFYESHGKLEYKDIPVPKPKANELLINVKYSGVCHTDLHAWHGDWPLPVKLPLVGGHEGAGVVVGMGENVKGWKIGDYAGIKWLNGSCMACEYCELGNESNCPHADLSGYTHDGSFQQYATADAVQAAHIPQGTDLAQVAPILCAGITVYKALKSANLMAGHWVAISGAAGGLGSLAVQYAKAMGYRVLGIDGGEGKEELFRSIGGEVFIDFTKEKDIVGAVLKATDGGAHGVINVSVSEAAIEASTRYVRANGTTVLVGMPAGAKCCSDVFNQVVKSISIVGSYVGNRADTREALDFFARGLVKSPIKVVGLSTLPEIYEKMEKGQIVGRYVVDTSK
Chain of UniProt Q7L1T6 (whole entry, unmodified, looked up): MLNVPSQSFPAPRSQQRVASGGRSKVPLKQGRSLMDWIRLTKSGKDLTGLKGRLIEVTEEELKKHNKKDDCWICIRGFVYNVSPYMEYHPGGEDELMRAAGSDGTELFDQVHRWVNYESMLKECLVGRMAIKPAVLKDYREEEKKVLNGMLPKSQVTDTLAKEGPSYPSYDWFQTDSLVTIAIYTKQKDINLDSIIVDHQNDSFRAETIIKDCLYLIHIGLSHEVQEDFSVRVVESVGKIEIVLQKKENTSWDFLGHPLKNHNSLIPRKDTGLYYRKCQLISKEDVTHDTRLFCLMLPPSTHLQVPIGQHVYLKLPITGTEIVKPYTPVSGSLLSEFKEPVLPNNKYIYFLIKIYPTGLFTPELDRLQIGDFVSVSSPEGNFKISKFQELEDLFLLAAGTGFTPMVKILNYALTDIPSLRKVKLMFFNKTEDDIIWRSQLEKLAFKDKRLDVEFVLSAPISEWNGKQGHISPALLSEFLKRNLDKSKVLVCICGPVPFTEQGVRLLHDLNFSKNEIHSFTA
Chain of UniProt Q7Y175 (whole entry, looked up): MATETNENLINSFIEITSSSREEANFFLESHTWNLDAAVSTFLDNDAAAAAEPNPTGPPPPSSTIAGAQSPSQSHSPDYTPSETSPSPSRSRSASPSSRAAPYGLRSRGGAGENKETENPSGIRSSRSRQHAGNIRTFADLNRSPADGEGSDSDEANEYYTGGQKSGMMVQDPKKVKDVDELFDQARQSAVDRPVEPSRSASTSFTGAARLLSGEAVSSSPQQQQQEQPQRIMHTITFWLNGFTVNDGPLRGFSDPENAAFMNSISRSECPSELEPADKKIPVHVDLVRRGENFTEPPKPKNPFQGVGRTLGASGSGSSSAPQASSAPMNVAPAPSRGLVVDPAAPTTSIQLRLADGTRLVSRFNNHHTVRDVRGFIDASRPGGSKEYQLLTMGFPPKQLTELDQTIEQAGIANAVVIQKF
Chain of UniProt P32246 (whole entry, looked up): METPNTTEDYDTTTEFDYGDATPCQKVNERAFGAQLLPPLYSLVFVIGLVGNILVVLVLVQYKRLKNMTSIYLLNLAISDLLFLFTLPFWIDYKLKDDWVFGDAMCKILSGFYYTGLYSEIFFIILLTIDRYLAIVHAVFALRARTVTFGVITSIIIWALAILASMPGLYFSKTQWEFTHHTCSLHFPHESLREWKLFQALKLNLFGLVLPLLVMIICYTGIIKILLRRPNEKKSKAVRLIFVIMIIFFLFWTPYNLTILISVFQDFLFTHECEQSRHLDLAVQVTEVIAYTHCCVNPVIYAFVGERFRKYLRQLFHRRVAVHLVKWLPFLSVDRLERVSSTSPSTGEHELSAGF
Chain of UniProt P24279 (whole entry, looked up): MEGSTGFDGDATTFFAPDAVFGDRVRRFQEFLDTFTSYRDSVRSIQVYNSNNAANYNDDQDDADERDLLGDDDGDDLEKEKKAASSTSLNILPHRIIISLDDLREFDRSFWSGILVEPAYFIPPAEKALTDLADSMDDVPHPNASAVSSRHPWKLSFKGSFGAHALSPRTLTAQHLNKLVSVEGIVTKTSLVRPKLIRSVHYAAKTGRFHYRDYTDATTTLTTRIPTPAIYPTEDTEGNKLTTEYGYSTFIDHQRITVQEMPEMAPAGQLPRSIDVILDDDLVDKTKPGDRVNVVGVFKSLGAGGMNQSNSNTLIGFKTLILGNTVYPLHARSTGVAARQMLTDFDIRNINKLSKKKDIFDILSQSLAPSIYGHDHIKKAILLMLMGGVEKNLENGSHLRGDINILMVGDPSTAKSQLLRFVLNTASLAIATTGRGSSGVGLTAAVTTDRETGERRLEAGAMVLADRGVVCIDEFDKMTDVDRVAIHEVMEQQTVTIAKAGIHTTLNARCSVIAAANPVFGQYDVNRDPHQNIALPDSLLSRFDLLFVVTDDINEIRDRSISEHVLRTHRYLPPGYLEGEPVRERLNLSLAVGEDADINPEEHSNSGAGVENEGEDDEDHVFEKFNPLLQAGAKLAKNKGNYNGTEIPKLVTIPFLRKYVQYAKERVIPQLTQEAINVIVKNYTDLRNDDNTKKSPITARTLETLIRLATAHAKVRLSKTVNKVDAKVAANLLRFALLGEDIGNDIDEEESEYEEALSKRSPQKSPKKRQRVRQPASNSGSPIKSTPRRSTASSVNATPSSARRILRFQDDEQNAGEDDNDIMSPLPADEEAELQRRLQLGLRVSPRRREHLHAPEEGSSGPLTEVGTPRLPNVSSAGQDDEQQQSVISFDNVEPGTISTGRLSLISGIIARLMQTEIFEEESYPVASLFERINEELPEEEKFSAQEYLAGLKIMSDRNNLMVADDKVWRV
Chain of UniProt P38646 (whole entry, unmodified, looked up): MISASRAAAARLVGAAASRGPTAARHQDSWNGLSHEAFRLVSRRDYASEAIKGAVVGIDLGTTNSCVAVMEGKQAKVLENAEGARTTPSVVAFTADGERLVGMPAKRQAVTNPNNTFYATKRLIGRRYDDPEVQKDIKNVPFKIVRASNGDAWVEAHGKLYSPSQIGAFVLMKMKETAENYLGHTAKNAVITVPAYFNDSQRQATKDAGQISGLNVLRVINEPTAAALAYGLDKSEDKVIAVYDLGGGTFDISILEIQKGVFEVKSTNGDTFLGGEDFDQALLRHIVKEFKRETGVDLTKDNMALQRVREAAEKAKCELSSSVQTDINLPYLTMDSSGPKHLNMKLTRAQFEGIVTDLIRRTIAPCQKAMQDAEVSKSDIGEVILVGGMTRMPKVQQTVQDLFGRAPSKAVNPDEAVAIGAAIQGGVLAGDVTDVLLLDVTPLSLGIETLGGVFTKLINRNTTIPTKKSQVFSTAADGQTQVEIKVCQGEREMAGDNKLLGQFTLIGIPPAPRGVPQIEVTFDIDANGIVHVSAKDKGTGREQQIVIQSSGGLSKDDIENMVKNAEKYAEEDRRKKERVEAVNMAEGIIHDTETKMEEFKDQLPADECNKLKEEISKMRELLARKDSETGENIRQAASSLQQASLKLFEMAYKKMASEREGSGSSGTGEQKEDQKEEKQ

| Molecule | target or system | test | system | conditions | how to read | quantity | result |
| --- | --- | --- | --- | --- | --- | --- | --- |
| FGG (Homo sapiens, UniProt P02679) | HARS2 (Homo sapiens, UniProt P49590) | cross-linking MS | – | together with: DSSO | – | cross-linked residues | K231 to K248 |
| B1 (Runx2) | Sp7 (Mus musculus, UniProt Q8VI67) | luciferase reporter | epithelial cells | – | relative to: alone, higher = greater activity | FGF3 promoter activity | 130 fold |
| trastuzumab-MMAE ADC IgG1 | FCGR3A (Homo sapiens, UniProt P08637) | BLI | – | ADC | relative to: unconjugated Trastuzumab, higher = weaker binding | KD fold increase | 2 fold |
| ACRDWTWIQCSG (MP5.1; one disulfide ring) | CTRB1 α-chymotrypsin (Bos taurus, UniProt P00766) | steady-state kinetics | peptide | – | – | Ki | 0.024 µM |
| B2 (lpxC 1-305) | lapB 21-389 W377G (Escherichia coli, UniProt P0AB58) | pull-down | – | – | – | binding | binds |
| colistin | Pseudomonas aeruginosa | – | clinical isolate RKI 21/12 | – | – | MIC | ≤ 1 µg/mL |
| B3 | LGR6 (Homo sapiens, UniProt Q9HBX8) | cell viability | Fc fusion, 293T-LGR6 | 5 days | – | cytotoxic IC50 | 0.0003 µM |
| Peginesatide | UT7/EPO | RT-qPCR, measured: BMP2 | – | concentration not given, 90 min, normalized to HPRT1 | relative to: vehicle | mRNA level | 4.9 fold |
| NGVTKTIAEPRARVEKDYGK (gld-3 860-879 L867A (Caenorhabditis elegans, UniProt Q95ZK7); sequence looked up) | fbf-2 164-575 (Caenorhabditis elegans, UniProt Q09312) | competition with ligand, fluorescence polarisation | peptide | – | – | IC50 | > 1200 µM |
| GAPDH (Homo sapiens, UniProt P04406) | IDH2 (Homo sapiens, UniProt P48735) | cross-linking MS | cells | together with: iqPIR | – | cross-linked residues | K194 to K155 |
| B4 (CRYAA G98R/R157Q) | ADH1 (Saccharomyces cerevisiae, UniProt P00330) | EDTA-induced ADH aggregation, absorbance, inhibitor | – | 250 µg | – | ADH aggregation suppression IC50 | 25 µg |
| 11-deoxycorticosterone | – | stopped-flow global kinetic fitting | – | 4-state closed model (best), 10-fold adrenodoxin excess, together with: substrate binding k3 | – | rate constant | 1.65 min⁻¹ |
| FGA (Homo sapiens, UniProt P02671) | CGRRF1 (Homo sapiens, UniProt Q99675) | cross-linking MS | – | together with: DSSO | – | cross-linked residues | K100 to K59 |
| CALLLSAPRR (GOT2 (Gallus gallus); fluorescein label) | HSPA9 47-600 (Homo sapiens, UniProt P38646) | FP | peptide | – | – | koff | 0.0075 s⁻¹ |
| B5 (TIMP2 27-153) | MMP10 99-263 (Homo sapiens, UniProt P09238) | enzyme activity, inhibitor, fluorogenic peptide cleavage assay | – | – | – | Ki | 0.0271 ± 0.003 µM |
| LPDTDDRHRIEEKRKRTYETFKSIMKKSPANGP (Rela 289-321 F318A (Mus musculus, UniProt Q04207); sequence looked up) | NFKBIA 67-206 (Homo sapiens, UniProt P25963) | ITC | peptide | – | – | ΔH | -2.5 ± 0.01 kcal/mol |
| CYB5R4 (Homo sapiens, UniProt Q7L1T6) | NGB E60K (Homo sapiens, UniProt Q9NPG2) | NO dioxygenation | – | 750 nM, 37 °C, E60K, together with: NADH 200 µM | – | time | 100 s |
| FGB (Homo sapiens, UniProt P02675) | RAD54L (Homo sapiens, UniProt Q92698) | cross-linking MS | – | together with: DSSO | – | cross-linked residues | K77 to K550 |
| CDC6 (Saccharomyces cerevisiae, UniProt P09119) | MCM3 (Saccharomyces cerevisiae, UniProt P24279) | cross-linking MS | – | hits only | – | interaction screen | cross-linked |
| PALLD Ig3-Ig4 tandem del6 linker residues | ACTA1 F-actin (Oryctolagus cuniculus, UniProt P68135) | low-speed co-sedimentation | – | 5 µM | – | bundled F-actin fraction | 86.5% |
| B6 (SAG del76) | RHO light-activated, phosphorylated (Bos taurus, UniProt P02699) | gel filtration | – | – | relative to: unchanged protein, lower = less binding | relative binding | < 30% |
| NRVDSKETEC | human SCRIB PDZ3-4 tandem (MBP fusion) | surface plasmon resonance | peptide | concentration not given | higher = stronger binding | normalised SPR binding response | 44.3 normalised RU |
| Putative uncharacterized protein ENSP00000382790 (Homo sapiens, UniProt A8MVM7) | TF (Homo sapiens, UniProt P02787) | cross-linking MS | – | together with: DSSO | – | cross-linked residues | K13 to K310 |
| B7 (CDC48A 1-190) | PUX5 (Arabidopsis thaliana, UniProt Q7Y175) | BLI | – | 25 °C | – | koff | 0.13 ± 0.01 s⁻¹ |
| B8 (CCL14 28-93) | CCR1 (Homo sapiens, UniProt P32246) | competition with ligand, radioligand binding | – | together with: 125I-CCL3 50 pM | – | IC50 | 0.0026 µM |
| B9 (C1S 438-688 S632A) | SERPING1 111-500 K328A/K329A (Homo sapiens, UniProt P05155) | SPR | – | together with: Ca2+ | – | koff | 0.0897 s⁻¹ |
| VMRLQSETSV | human SCRIB PDZ3-4 tandem (MBP fusion) | automated holdup | peptide, crude extract | concentration not given, corrected by standard peak, unit not given | relative to: biotin control resin, higher = stronger binding | binding intensity | 0.813 |
| ALB (Homo sapiens, UniProt P02768) | VSIG10L (Homo sapiens, UniProt Q86VR7) | cross-linking MS | – | together with: DSSO | – | cross-linked residues | K223 to K171 |

Excerpt of the above:
| Molecule | target or system | test | system | conditions | how to read | quantity | result |
| --- | --- | --- | --- | --- | --- | --- | --- |
| B3 | LGR6 (Homo sapiens, UniProt Q9HBX8) | cell viability | Fc fusion, 293T-LGR6 | 5 days | – | cytotoxic IC50 | 0.0003 µM |
| Peginesatide | UT7/EPO | RT-qPCR, measured: BMP2 | – | concentration not given, 90 min, normalized to HPRT1 | relative to: vehicle | mRNA level | 4.9 fold |
| NGVTKTIAEPRARVEKDYGK (gld-3 860-879 L867A (Caenorhabditis elegans, UniProt Q95ZK7); sequence looked up) | fbf-2 164-575 (Caenorhabditis elegans, UniProt Q09312) | competition with ligand, fluorescence polarisation | peptide | – | – | IC50 | > 1200 µM |
| GAPDH (Homo sapiens, UniProt P04406) | IDH2 (Homo sapiens, UniProt P48735) | cross-linking MS | cells | together with: iqPIR | – | cross-linked residues | K194 to K155 |
